Results of several laboratories.
Numbered parts are unrelated; each lists some results of a single study. Substitutions count along the parent as printed.

Series 1 — target: CCNF, cyclin fold, Cln2 fusion (human); technique: yeast growth competition, sequencing; matrix: yeast; setting: strong parent motif; relative to: not given; reading: higher = stronger binding; quantity: normalised enrichment score
Parent: RBL2 docking peptide (human); STTRRRLFVENDS; partner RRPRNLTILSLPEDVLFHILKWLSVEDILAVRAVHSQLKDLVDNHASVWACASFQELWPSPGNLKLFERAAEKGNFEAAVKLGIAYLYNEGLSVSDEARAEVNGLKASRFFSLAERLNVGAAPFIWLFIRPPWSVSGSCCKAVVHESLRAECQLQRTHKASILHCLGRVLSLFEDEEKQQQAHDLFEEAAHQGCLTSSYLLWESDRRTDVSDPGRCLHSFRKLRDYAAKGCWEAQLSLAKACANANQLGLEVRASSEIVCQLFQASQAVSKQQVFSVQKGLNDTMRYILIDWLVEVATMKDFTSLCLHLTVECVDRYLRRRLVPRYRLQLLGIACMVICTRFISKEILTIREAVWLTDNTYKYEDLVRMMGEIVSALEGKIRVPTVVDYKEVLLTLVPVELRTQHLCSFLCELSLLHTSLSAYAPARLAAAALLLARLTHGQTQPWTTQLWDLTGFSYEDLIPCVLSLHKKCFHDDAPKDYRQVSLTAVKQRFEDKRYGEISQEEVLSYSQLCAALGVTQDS
STTNRRLFVENDS [R4N]: 6.02
ATTRRRLFVENDS [S1A]: 7.07
STMRRRLFVENDS [T3M]: 4.12
STTRRRLFVENPS [D12P]: 9.46
STTRGRLFVENDS [R5G]: 0.0756
STTRRRLFWENDS [V9W]: 10.1
STTRRRQFVENDS [L7Q]: 0.515
SETRRRLFVENDS [T2E]: 6.88
STTRRRLFVEFDS [N11F]: 9.26
STTRRRTFVENDS [L7T]: 0.706
STTRYRLFVENDS [R5Y]: 0.771
STTRRLLFVENDS [R6L]: 7.41
SFTRRRLFVENDS [T2F]: 8.07

Series 2 — technique: protein binding microarray; form: double-stranded DNA, one strand shown; matrix: in vitro; concentration: not given; relative to: not given; reading: higher = stronger binding; quantity: E-score
Target: Histone acetyltransferase KAT6A, winged helix 2, GST fusion (KAT6A, Homo sapiens, UniProt Q92794, residues 85-181)
Setting: 8-mer, flanks averaged, mean of 2 arrays, mostly near background
Residues (chain): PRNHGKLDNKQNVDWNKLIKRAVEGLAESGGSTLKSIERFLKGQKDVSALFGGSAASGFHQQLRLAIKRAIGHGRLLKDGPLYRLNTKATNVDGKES
GAAAATTA: 0.0393
ATCGAGCC: 0.0399
CGCTTCGC: 0.129
AACTGGGT: -0.0523
GTTGACAA: 0.0616
CGCAGAAA: 0.136
AGCGTTTC: -0.0862
CCTCCACG: 0.033
ACGAGCAC: -0.0222
AATTTAGA: 0.177
GGTGCCTA: -0.0566
CCTTTCAA: 0.0201
TAGCGCTA: -0.203
AGGTCATG: -0.102
AGAATGAA: 0.126
AATTTCTA: 0.0406
AGTAGATA: 0.0655
CGTGATCC: -0.00897
CGCCGACA: -0.017
AAGCAATG: 0.0746

Series 3 — technique: protein-binding microarray; form: double-stranded DNA, one strand shown; matrix: in vitro; concentration: not given; reading: higher = stronger binding; quantity: E-score
Target: Myc proto-oncogene protein, bHLH-zipper, MAX partner unstated (MYC, Homo sapiens, UniProt P01106, residues 368-449)
Chain of UniProt P01106 (368-449, looked up): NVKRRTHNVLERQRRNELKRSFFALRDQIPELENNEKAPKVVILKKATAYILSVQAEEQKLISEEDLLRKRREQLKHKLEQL
Setting: k-mer, scored over probes, only values ≥0.25
TAGCGTGA: 0.267
ACGTGCCG: 0.429
CATGGCTC: 0.338
ACTCATGG: 0.312
CATGCGGC: 0.452
CATGCAAA: 0.259
AAACATGT: 0.321
CCATGCCG: 0.429
CCGCACGC: 0.384
CACCATGG: 0.329
GAACGTGC: 0.334
CTGCGTGA: 0.275
AACCATGT: 0.303
ACGCACAT: 0.379
AGCATGCT: 0.45

Series 4 — technique: RNA Bind-n-Seq; form: RNA; matrix: in vitro; concentration: 365 nM; relative to: no-protein control; reading: higher = stronger binding; quantity: RBNS enrichment (R)
Target: RNA binding protein fox-1 homolog 2, RRM domain, GST-SBP tag (RBFOX2, Homo sapiens, UniProt O43251-10, residues 100-194)
Setting: natural RNA segment, single round, ends assumed
Shared flanks, not repeated: GGGAGUUCUACAGUCCGACGAUC … UGGAAUUCUCGGGUGCCAA
Construct (chain): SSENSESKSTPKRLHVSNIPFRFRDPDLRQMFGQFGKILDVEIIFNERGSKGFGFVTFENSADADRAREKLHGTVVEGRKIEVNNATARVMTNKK
GCUGUGUCACUGAGGUGGUGCCCCUCUGCCUGCCUGCCCCACUGUGCUGGCAGGAGCUGACUGUGGACUGGUGGGCUCCCCUCUGGGCCAGCACAGUCCCCUCACCUCUG: 1.56
CUAGGCGCUGACAUUAACAGGAGCAACCAGGGCCCAAUUCCUGGCCUUGGAGCUCAAAUCUUUCCUUUGAUUUUUGCUCCUGAUCAUCAAGGCCCCAGUGGCAACCAUGU: 0.341
CUUCUCCCGGGACCAUCCUGAUAUGGCGGUUCAUUCAGAAUGACCUGGAGGGGAAGGUGGGUGGGCGUUCUCUAAGGCACAACACCCCAAAGGCCGACUGUACCCAUGAG: 0.341
AGGAAGGCUUGGCUCCUGUCUUCCCAGACCCACCAUGCCUGGAGAGGUCAGGAUGGAACUACCUCAUUCGGCAAAUUAGCCCCAAAUUGAGCGCUGAAUCGUGUCCCAUG: 0.297
GCCUGAUUUAAAAAGAAAAAAAAAAUUCCUUAAGCCAAAUGGUGUUCCAAGUUGGUUGCUGUGACAACCUCCAGGAAGAGCCACUUGUUACCCUCUAUUCUUUCUAGUGC: 0.55
ACAGGUGCAUGAGGGUUACACCCGUCACCUGGGUCUGCCGGGAUGGGUUGGGGGGGCAGGUGCCAGGCCUCACUGCUGUGAAUCUGCCACGCCUGGGGGUCCUAGAGGCU: 0.515
GCUCUGGAACAAUACCUGCAGUUAUUCUUCAGCUGUUUGGACAACUUAGAUUGGGUUUAUAACUAUUAGGAAUCACUGCACAGUUUAUUUGGGUUGUGUUUUGUGUCUGA: 0.385
CCCCUCUGUCAUGGCAGCUCUGCAGGGGCAUGAAUCUGAGUGACGAGAGCCUGCGUUCUUCUGCCUCAGCUCUGCUCCUCAGGAAGGGGUGGCUCCAGCUGCCCACCAUU: 1.1

Series 5 — target: UBE2D1 UBC core domain (UniProt P51668); technique: yeast two-hybrid; matrix: yeast; setting: mostly zero background; relative to: not given; reading: higher = stronger interaction; quantity: lacZ reporter activity
B1: DTX2 RING domain (UniProt Q86UW9); chain EELKVPPDEDCIICMEKLSTASGYSDVTDSKAIGSLAVGHLTKCSHAFHLLCLLAMYCNGNKDGSLQCPSCKTIYGEKTGTQ
B2: RNF121 RING domain (UniProt Q9H920); chain MPTKHLSDSVCAVCGQQIFVDVSEEGIIENTYRLSCNHVFHEFCIRGWCIVGKKQTCPYCKEKVDLKRMFS
B3: ZMIZ2 RING domain (UniProt Q8NF64); chain GTIPGTPGPNGEDGVEQTAIKVSLKCPITFRRIQLPARGHDCRHIQCFDLESYLQLNCERGTWRCPVCNKTALLEGLEVDQYMLGILIYIQNSDYEEITIDPTCSWK
B4: UBOX5 RING domain (UniProt O94941); chain EQPGSILGPECASCKRVFSPYFKKEPVYQLPCGHLLCRPCLGEKQRSLPMTCTACQRPVASQDVLR
Target sequence (chain): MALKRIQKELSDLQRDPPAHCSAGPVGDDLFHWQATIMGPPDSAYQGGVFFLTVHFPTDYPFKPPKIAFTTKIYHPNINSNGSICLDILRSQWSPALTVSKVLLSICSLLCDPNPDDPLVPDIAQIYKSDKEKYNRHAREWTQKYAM
B1 (DTX2 RING domain): 0
B2 (RNF121 RING domain): 0
B3 (ZMIZ2 RING domain): 0
B4 (UBOX5 RING domain): 0
KETIKKTTKPCPRCHVPVEKNGGCMHMKCPQPQCRLEWCWNCGCEWNRVCMG (PRKN RING domain (UniProt O60260)): 0
KLRKLKEAMLCMVCCEEEINSTFCPCGHTVCCESCAAQLQSCPVCRSRVEHVQHVY (MYLIP RING domain (UniProt Q8WY64)): 0
